# Results of several laboratories.
# Numbered parts are unrelated; each lists some results of a single study.

# Sample 1 — method: aptamer microarray, sandwich; form: DNA with 2'F-ANA; matrix: in vitro; concentration: 200 nM; together with: Cy3 exosite-II aptamer, 400 nM; reading: higher = stronger binding; strand: GGTTGGTGTGGTTGG
# Target: Prothrombin, mature alpha-thrombin (F2, Homo sapiens, UniProt P00734)
# Notes: whole 15-mer aptamer, many near background
Modification,mean fluorescence intensity [a.u.]
2'F-ANA at 1 3 5 6 9 10 11 12 13,76.5
2'F-ANA at 1 5 7 8 9 11 13 15,53.1
2'F-ANA at 1 4 5 6 7 8 10 12 13,47.5
2'F-ANA at 1 2 3 6 9 10 11 13 14 15,58.5
2'F-ANA at 1 2 8 11 12,359
2'F-ANA at 2 3 4 6 8 10 13 14,180
2'F-ANA at 1 4 5 9 10,48.1
2'F-ANA at 1 2 4 7 9 10 11 13 14 15,67.7
2'F-ANA at 5 6 7 9 10 11 14 15,49.4
2'F-ANA at 2 4 7 8 10 11 13 14 15,61.9
2'F-ANA at 1 2 3 6 7 9 11 12 14 15,72.8
2'F-ANA at 2 3 4 5 10 11 13 14,45.5
2'F-ANA at 2 4 6 7 9 12 13 14,90.3
2'F-ANA at 2 3 4 5 11 13 14 15,87.9
2'F-ANA at 1 5 6 7 8 9 12 13 14 15,46.1
2'F-ANA at 2 4 6 7 8 9 11 13 15,176
2'F-ANA at 1 2 4 9 10 12 13,51.9
2'F-ANA at 1 4 6 7 8 10 12 14 15,47.3
2'F-ANA at 1 4 7 9 11 12 14 15,55.9
2'F-ANA at 1 2 3 4 5 7 10 12,47.6
2'F-ANA at 4 9 10 12 14 15,61.2
2'F-ANA at 3 4 6 7 8 10 11 12 13 14,166
2'F-ANA at 1 2 10 12 14 15,49.3

# Sample 2 — method: RNA Bind-n-Seq; form: RNA; matrix: in vitro; concentration: not given; reference: input RNA pool; reading: higher = stronger binding
# Target: RING finger protein unkempt homolog, zinc fingers 1-6, GST-SBP tag (UNK, Homo sapiens, UniProt Q9C0B0, residues 30-357)
# Notes: RNA with constant flanks, human-mouse chimeric sites, ends assumed
# Construct (chain): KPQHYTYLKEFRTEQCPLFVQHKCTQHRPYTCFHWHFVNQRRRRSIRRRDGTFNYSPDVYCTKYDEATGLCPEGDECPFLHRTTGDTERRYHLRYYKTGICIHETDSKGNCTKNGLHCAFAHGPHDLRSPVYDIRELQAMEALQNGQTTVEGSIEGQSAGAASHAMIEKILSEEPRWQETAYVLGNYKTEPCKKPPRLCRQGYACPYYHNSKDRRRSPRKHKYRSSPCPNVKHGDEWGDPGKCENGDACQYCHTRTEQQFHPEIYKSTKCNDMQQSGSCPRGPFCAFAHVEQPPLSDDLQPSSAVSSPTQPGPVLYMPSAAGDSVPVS
Strand,bound/input enrichment
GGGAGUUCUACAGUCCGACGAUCUUGCUACUGACUCCCUGGGUUAAAUUCCUGUGGGAAUCAUACAGGCAGUGUUUGGACCUUCUUCGAAACAAUUCUAGAGUAGAGCGCCUGUACCAUGAUAUCGCCCAACAAGCUUUCAAACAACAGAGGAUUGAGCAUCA,0.165 ratio
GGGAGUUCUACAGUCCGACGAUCACUCUUGACUCUUUCCAUCCUCUUCCUUUUCCUCUUGAUAUUCAAGGCCAUGAAUCCCAAAAUAACAGUCUUAGUGGCUAGCACCCACCCAAACUGAGAAUAAAUCCACCCCAGUGUCUCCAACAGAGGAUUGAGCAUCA,0.471 ratio
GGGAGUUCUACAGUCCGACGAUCUAAGUCCUGUGCCAGCACUUCGCUCAUAAAGUUUUAAAUUCUGGACCAAUAGUGUUUGUUUCCUGAUUUUUGUAUUCAAUACUUUGCGUACUAUGUGACUCACUCUUACUGAUAAUAAAACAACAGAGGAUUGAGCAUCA,0.553 ratio
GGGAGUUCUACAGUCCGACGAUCGAAACUAUUCCUAAAGAGGAGAAAGCUGAAAAGGAAGCUCGGAGAUCGUCUCUCGAGAAACAUAGAAAAGAAAAGCCUUUUAAAACCGGGAGAGGCAGAAUUUCCACUCCUGAAAGAAAACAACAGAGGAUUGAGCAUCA,0.567 ratio
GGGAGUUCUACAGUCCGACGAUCAGAGAUAAGACAUCCAGGAACAUGCGAGGCUCCCGGAUGAAUGGACUGCCUAGCCCCACUCAUAGUGCCCACUGUAGCUUCUACCGAACCAGAACCUUGCAGGCACUGAGUAAUGAGAAGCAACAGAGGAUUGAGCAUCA,0.129 ratio
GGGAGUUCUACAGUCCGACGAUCUGUGAACUGUCUCUUGAGAUCUAAAAACAAGAUGACUUUUCCUGGCACAUAUUUCAAAGCAAAGACUUUGUUGCCUGCUGCUUAUUGUCUAAUUUACAGGGAUAUUUAAUUUUGUAAGGUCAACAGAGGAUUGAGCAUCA,0.129 ratio
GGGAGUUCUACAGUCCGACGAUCGUUGCCAGCUUCCGGUUCCGUUGGGCUCGGUUCUCUCAGUGCUACGUUGUCUCUACGCUCUCAAUCCGCCAUCCAACAAACAUGGAUCAGGUAAUGCAGUUUGUGGAUGAGCCAAGUCAGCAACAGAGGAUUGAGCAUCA,0.0434 ratio
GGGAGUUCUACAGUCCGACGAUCAAAGUGAUAACCAUGUUUGUCCAACGACAGGUGUUUGCGGAGAGCAAAGAUGAGAUUGCGUUAGUCCUCUAUGGCACAGAUGGCACUGAUAAUGCCCUUGCUGGCAAGGACCAGUAUCAGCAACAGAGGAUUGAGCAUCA,0.135 ratio
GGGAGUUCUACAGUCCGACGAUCAACAGAUUGUCUUUAAGCAUUCCAAGCAAUGCUUGGGGGGUGAUCAUAAUUACCCACGUGCCUUCUGACUGAGCUUUAAUGCUGUUCCAUGUUACAUCUUUCCUUCACUCCAGAAUUGUUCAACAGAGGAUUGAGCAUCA,0.145 ratio
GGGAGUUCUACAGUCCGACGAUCAAAGCCCAAGUAUUUUGAAAAAACUCGAACAGAUUUGUCAAGGGUAACCAGCUUGGAGUCUAGCAACUUGCCAAUGUGUUUACCAAUCUGGGGGCUUGUUUUUCUUUUCUUCUUUCAAAUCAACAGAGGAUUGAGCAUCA,0.273 ratio
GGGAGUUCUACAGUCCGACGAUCGAUCCACAGUGGUCUGAGGAGCAACUCAUUGCUGCAAAAUUUUGCUUUGCUGGCCUUGUUAUAGGGCAGACUGAAGUGGACAUCAUGAGUCAUGCCACACAAGCUAUUUUUGAAAUUCUGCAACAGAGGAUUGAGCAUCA,0.168 ratio

# Sample 3 — method: protein binding microarray; form: double-stranded DNA, one strand shown; matrix: in vitro; concentration: not given; reference: not given; reading: higher = stronger binding
# Target: Histone acetyltransferase KAT6A, both winged helices, GST fusion (KAT6A, Homo sapiens, UniProt Q92794, residues 1-181)
# Notes: 8-mer, flanks averaged, mean of 2 arrays, mostly near background
# Construct (chain): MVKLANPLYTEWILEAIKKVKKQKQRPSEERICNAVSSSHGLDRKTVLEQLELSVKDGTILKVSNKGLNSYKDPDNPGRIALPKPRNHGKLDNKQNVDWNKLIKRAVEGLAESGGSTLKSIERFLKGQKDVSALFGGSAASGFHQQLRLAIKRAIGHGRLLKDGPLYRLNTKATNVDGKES
Strand,E-score
AGTGGGCC,-0.174
CATATGGA,-0.118
GTCCTAAC,-0.0825
AAGGCTCT,-0.0748
ACGTTACA,-0.0371
ACAAAGGG,-0.244
ACAAAGGT,-0.134
CACCCAAG,-0.0481
CCTGCGAG,0.0585
ACTCTTTC,-0.101
ATATCCAA,-0.0202
AAACTCTA,-0.119
AGACAAAT,-0.152
ACGGACCC,0.139
CCGCTGTA,0.163
ATGTCAAT,-0.0496
CCCAATGC,-0.14

# Sample 4 — method: competition protein-binding microarray; form: double-stranded DNA, one strand shown; matrix: in vitro; concentration: 2 µM; together with: Cbf1 competitor, 0.05 µM; reading: higher = stronger binding
# Target: Phosphate system positive regulatory protein PHO4, full length, GST-tagged (PHO4, Saccharomyces cerevisiae, UniProt P07270, residues 1-312)
# Notes: whole 60-bp probe, lowest competitor level
# Residues (chain): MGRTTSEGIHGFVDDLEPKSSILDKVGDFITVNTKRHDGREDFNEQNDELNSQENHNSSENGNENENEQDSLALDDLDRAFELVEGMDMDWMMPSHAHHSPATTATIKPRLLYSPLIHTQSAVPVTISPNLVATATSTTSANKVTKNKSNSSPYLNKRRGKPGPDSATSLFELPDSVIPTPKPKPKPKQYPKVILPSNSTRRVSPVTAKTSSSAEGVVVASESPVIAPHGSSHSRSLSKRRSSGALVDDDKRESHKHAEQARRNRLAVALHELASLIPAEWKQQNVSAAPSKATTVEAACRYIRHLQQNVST
Strand,fluorescence intensity [a.u.]
TTGTAGTTATATACCCACGTTTGCTGGGTCTAACGAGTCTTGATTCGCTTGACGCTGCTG,10100
CATACCCAACCTTGCCGTGTGGGTGAAGATATTTGTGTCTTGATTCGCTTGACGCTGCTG,6880
GACTAGGTTTGAAAGCACGTTGGAAGACATACGGAAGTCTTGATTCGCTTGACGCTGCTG,13400
GTCTTGTCTCATTGTTCAGTGGGTGTCCCCACTTCAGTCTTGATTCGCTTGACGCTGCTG,4880
CTTTCCCGATCTTGCCAAGTGGGTGTAGCACATTTGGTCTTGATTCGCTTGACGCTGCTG,4080
CGTCCTAGTGATTGGAACGTGGGTGCCATGAGGAAGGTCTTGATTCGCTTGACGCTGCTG,14000
ATTACATGGTGCTTGCTCGGGCTTTTTGGGATAAGAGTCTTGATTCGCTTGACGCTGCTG,4520
GAAGTCCTTATTCCGCACGTTGCTACCGCCGGCTTGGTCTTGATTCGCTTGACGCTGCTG,11900
CTGAACTAACACTCACACATGTAGAGGTCCCCGGGAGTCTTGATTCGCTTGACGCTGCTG,6250
CATGTTTCGATGTTACACGTGGAACAAGAGTTAAGAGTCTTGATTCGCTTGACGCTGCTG,18600
CCGACTGCGCAGCCCAACGTGCGGATAATTGGAGACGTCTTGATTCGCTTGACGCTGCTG,15300
CGTCCTAGTGATTTTCACGTGACCTCCATGAGGAAGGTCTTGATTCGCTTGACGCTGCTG,11200
ACTTAGCGCAAACGTCACCTGGGTGGCGTTTTCCGCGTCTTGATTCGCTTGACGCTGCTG,4090
ATATGTGTGCGACGACACATGATAATATGGCATGCAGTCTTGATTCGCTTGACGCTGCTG,9300
AGCGATTGTAGCCAAATCGTGGGTACTGACTCTTGTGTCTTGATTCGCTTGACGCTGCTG,6500
GGGGAATTTCGCCGTCACGTTGTTTTGGTAAGTTCCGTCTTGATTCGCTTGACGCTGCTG,11400
CAATGAATATACTGCAACGTGCCGATTGAATCCTATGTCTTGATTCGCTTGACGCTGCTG,14600
AAAGCGGTAATTTCACACGTGTTTTCACATATCTATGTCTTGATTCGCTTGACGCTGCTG,18000
AAAGCGGTAATTTGTCACCTTACTTCACATATCTATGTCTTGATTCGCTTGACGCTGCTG,3090
GGGCTCTTTGTTTAGCATGTGCCTCATCTCTTTTTCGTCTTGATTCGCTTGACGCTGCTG,10500
CGGGGTTAAGTTTGTCACCGAACTTGCTTGCAGCAGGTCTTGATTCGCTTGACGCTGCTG,3150
AAGAAAAAATTCACAAGCGTGTCCTTTAGTGCAGCTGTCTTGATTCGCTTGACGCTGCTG,5970
CCTTGTTTACCGTTCGCCGTGATGGCTCCTTGAGCAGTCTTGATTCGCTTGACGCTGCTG,3960
TAGGTAGCAAATATTGGCGTGATTGCGGAGCCTTCCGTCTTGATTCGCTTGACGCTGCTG,3670
GCAATAATGAACCGTCACATGCAAGCCCCATACGCCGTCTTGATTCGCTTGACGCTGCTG,8470

# Repeated from above (sample 1):
Modification,mean fluorescence intensity [a.u.]
2'F-ANA at 1 4 6 7 8 10 12 14 15,47.3
2'F-ANA at 1 3 5 6 9 10 11 12 13,76.5
2'F-ANA at 5 6 7 9 10 11 14 15,49.4
2'F-ANA at 2 4 6 7 9 12 13 14,90.3
2'F-ANA at 2 4 6 7 8 9 11 13 15,176
2'F-ANA at 1 4 7 9 11 12 14 15,55.9
2'F-ANA at 1 2 4 9 10 12 13,51.9
